Experimental data pooled from the literature.
A part holds a random share of what one study measured.

Block 1
Target: Sal-like protein 4, full length isoform A (SALL4, Homo sapiens, UniProt Q9UJQ4, residues 1-1053)
UniProt Q9UJQ4, sequence (whole entry, looked up): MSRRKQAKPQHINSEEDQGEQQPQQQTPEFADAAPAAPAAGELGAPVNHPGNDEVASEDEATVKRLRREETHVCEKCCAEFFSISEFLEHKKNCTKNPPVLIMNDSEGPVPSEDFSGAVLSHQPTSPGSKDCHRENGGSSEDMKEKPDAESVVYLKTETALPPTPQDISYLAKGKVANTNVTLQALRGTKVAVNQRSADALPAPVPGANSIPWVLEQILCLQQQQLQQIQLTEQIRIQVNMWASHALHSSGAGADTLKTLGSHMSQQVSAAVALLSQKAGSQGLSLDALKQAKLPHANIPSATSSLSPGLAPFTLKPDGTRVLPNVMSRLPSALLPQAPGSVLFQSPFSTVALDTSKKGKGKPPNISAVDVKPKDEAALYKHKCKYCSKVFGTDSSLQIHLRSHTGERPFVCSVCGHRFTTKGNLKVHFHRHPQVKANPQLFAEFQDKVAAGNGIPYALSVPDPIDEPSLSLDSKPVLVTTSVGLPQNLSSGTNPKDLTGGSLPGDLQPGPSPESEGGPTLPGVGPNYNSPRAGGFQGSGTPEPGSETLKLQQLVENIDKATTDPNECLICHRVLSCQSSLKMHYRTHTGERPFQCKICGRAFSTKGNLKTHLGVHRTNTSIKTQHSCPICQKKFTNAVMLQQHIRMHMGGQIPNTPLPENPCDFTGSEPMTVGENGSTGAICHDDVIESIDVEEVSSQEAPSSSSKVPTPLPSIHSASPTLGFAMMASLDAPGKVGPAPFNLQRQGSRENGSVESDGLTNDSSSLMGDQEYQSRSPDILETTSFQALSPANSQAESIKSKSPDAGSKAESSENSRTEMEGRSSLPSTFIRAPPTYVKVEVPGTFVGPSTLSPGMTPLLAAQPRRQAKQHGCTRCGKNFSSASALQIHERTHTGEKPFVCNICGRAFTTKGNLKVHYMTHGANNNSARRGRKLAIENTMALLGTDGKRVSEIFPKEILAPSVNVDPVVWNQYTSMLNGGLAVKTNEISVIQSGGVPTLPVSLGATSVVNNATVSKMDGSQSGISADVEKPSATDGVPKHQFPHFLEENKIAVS
Method: universal PBM
Molecule type: double-stranded DNA, one strand shown
Matrix: in vitro
Concentration: 600 nM
Notes: 8-mer, flanks averaged, mean of replicates
Direction: higher = stronger binding
Endpoint: E-score
ATTGCGTA: 0.14
AATGACGT: 0.126
AGTGAATG: 0.0866
AGGCAGGA: -0.0481
CAGCATGG: -0.166
AAGCTCCT: -0.105
GGGTGAGA: -0.157
CGCGCTAA: -0.0717
AGGCAAAA: 0.203
ATGCTCAC: 0.00071
AGCGTGAA: -0.0278

Block 2
Target: Interferon regulatory factor 3, full length, phosphomimetic (IRF3, Homo sapiens, UniProt Q14653, residues 1-427, S386D/S396D/S398D/S402D/T404D/S405D)
Method: protein-binding microarray
Molecule type: double-stranded DNA, one strand shown
Matrix: in vitro
Concentration: 2540 nM top
Notes: 60-bp whole probe
Together with: salmon DNA 0.4 mg/ml
Baseline: random background probes
Direction: higher = stronger binding
Endpoint: fitted relative affinity
All sequences stand within: GCCTAGCAC … GTCTTGATTCGCTTGACGCTGCTG
Residues (chain): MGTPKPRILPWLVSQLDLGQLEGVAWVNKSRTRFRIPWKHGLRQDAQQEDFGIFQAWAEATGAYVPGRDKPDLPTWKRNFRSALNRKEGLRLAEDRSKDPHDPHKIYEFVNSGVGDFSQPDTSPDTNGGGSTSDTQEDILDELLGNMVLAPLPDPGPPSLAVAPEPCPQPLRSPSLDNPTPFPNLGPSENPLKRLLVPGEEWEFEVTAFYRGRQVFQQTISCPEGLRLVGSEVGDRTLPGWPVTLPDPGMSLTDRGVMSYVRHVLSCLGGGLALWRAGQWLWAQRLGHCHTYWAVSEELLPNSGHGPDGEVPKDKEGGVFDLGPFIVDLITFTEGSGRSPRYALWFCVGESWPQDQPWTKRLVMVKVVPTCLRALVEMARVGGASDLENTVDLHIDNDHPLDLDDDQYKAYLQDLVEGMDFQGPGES
TTAGAACTGGGGACTGGATTTGTGCTA: -0.855 z-score
GACGACCTGGGGACTGGAGACGTGCTA: -0.906 z-score
GACGGTTTCCTTGCCCTGACGTGCTAG: 4.25 z-score
GACGGTTTCCGGACTGGGGACGTGCTA: 4.1 z-score
GACGGACTGCTTTTGCTGACGTGCTAG: -0.378 z-score
TCATTTTAAAGTTTCAGACTGTGCTAG: 2.48 z-score
TCATCTCTGGCCCTCCTACTGTGCTAG: 0.45 z-score
TTAGGTTCCCTTTTCCTTAAGTGCTAG: 7.72 z-score

Block 3
Target: Histone acetyltransferase KAT6A, both winged helices, GST fusion (KAT6A, Homo sapiens, UniProt Q92794, residues 1-181)
Method: protein binding microarray
Molecule type: double-stranded DNA, one strand shown
Matrix: in vitro
Concentration: not given
Notes: 8-mer, flanks averaged, mean of 2 arrays, mostly near background
Baseline: not given
Direction: higher = stronger binding
Endpoint: E-score
Construct (chain): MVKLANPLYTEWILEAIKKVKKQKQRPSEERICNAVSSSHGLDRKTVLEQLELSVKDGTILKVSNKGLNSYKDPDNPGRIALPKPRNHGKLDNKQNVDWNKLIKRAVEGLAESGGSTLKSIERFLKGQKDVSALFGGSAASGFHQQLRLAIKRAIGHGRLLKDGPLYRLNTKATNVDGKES
AGTAAGAT: -0.145
ACCGAAAT: 0.0396
GCTGTCAC: -0.00528
TGTGACAA: -0.0595
ATAAAAAC: 0.0384
CAGGCGTA: -0.00346
AGAATGCC: 0.0591
AGCTTTGG: -0.123

Mixed results
PhoQ, residues 284 288 289 292 302 303 WVSSAF — fold induction (PhoP, residues 12 14 15 18 19 NMSSL (Escherichia coli, UniProt P23836); Sort-seq, item: YFP reporter; E. coli; PhoQ-PhoP variant library, together with: 10 µM Mg2+; baseline: high Mg2+ state, higher = stronger signaling): 4.97
